Measured values from different studies.
Each numbered part is a random draw from the data of one study; scales do not carry over between parts.

Series 1 — method: universal PBM; molecule type: double-stranded DNA, one strand shown; medium: in vitro; tested at: 600 nM; direction: higher = stronger binding
Target: Sal-like protein 4, full length isoform A (SALL4, Homo sapiens, UniProt Q9UJQ4, residues 1-1053)
Chain of UniProt Q9UJQ4 (whole entry, looked up): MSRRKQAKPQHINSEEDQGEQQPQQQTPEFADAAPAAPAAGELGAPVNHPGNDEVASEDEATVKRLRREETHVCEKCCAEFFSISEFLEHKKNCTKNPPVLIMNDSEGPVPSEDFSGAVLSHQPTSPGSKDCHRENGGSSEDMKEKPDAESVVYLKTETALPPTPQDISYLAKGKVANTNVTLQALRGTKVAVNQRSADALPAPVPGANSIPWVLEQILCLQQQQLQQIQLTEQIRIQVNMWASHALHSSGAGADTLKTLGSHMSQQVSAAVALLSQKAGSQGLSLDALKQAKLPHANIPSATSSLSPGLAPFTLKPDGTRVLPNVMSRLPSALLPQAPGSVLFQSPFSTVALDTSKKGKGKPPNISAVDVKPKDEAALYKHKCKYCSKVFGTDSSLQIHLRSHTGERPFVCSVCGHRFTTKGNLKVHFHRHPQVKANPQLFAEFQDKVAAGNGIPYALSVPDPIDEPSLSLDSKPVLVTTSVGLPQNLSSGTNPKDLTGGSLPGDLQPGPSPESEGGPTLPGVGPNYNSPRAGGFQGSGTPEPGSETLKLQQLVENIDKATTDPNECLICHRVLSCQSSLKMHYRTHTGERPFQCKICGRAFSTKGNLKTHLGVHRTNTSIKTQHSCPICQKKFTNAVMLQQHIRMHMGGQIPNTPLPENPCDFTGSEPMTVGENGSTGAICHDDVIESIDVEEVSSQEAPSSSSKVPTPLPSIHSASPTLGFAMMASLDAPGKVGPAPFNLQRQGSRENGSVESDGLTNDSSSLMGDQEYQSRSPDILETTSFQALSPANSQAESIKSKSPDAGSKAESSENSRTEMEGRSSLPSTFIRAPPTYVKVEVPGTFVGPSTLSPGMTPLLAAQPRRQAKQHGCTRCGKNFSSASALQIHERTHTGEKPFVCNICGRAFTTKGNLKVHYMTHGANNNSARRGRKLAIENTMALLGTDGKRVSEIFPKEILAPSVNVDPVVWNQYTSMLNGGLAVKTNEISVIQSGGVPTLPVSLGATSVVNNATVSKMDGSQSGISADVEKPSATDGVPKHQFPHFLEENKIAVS
Setting: 8-mer, flanks averaged, mean of replicates
Strand	E-score
GCGGGCGA	-0.353
AGATCCCG	-0.155
CTGGAGTA	0.00515
CGATCGGA	-0.182

Series 2 — method: protein binding microarray; molecule type: double-stranded DNA, one strand shown; medium: in vitro; tested at: not given; baseline: not given; direction: higher = stronger binding
Target: Histone acetyltransferase KAT6A, both winged helices, GST fusion (KAT6A, Homo sapiens, UniProt Q92794, residues 1-181)
Setting: 8-mer, flanks averaged, mean of 2 arrays, mostly near background
Construct (chain): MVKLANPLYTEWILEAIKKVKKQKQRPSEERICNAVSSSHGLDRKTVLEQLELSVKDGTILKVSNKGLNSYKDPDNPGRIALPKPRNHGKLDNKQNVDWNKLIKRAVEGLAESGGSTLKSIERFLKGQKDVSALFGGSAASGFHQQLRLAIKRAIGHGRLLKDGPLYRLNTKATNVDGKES
Strand	E-score
AGATATTG	-0.212
AGGGCGCG	0.225
CCATTTAC	-0.0429
CGTTGGGC	-0.00513
ACGCGGAC	0.309
GAAGGAAA	0.0533
CCGTGAGC	0.278

Series 3 — method: protein-binding microarray; molecule type: double-stranded DNA, one strand shown; medium: in vitro; tested at: 940 nM top; setting: 60-bp whole probe; added: salmon DNA 0.4 mg/ml; baseline: random background probes; direction: higher = stronger binding; constant ends, left off below: GCCTAGCAC … GTCTTGATTCGCTTGACGCTGCTG
Target: Interferon regulatory factor 5, full length, phosphomimetic (IRF5, Homo sapiens, UniProt Q13568-2, residues 1-514, S451D/S453D/S456D/S462D)
Strand	fitted relative affinity
TTGGGTTTCGGGTTTCGGTTAGTGCTA	10.7 z-score
TCATCTCTCAAAAGTCACACTGTGCTA	0.919 z-score
AACGGTATCGGTATCGGGACGTGCTAG	9.03 z-score
CAGAAGCCAGAGAGGACAGGGTGCTAG	-0.707 z-score
GACGATTTCAGTTTCGATACGTGCTAG	8.85 z-score
TCATTTTTGTAATCGAAAACTGTGCTA	0.274 z-score
TCACAGAAGGGAAACAGGACTGTGCTA	-0.192 z-score

Other studies, line by line
Substance	target	test	system	conditions	scale	endpoint	value
PhoQ, residues 284 288 289 292 302 303 AMDMFI	PhoP, residues 12 14 15 18 19 LHTVM (Escherichia coli, UniProt P23836)	Sort-seq, refers to: YFP reporter	E. coli	PhoQ-PhoP variant library, added: 10 µM Mg2+	baseline: high Mg2+ state, higher = stronger signaling	fold induction	1.03

Excerpt of the above (series 1):
Strand	E-score
CGATCGGA	-0.182
